Results collected from several papers.
Each line is one published result; not all experiments were run side by side. Values joined by “and” are separate records of one study, mostly repeats; a detail may differ. ± gives the spread as reported.
CASP1: Caspase-1 (CASP1, Homo sapiens, UniProt P29466)
Chain of UniProt P29466 (whole entry, looked up): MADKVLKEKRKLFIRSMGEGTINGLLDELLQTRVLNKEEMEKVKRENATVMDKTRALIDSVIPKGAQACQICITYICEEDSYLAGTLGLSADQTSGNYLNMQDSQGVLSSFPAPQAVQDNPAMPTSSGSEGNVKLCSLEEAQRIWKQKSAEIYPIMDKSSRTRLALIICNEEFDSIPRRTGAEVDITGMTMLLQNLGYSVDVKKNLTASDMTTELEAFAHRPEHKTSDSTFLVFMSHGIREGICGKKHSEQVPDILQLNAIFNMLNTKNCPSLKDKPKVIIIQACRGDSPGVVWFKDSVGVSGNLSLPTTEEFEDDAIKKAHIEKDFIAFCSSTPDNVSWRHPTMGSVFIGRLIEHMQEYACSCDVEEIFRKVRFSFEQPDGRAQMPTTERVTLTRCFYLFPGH
HSP90AA1 N-terminal domain: Heat shock protein HSP 90-alpha, N-terminal domain (HSP90AA1, Homo sapiens, UniProt P07900)
CCR5: C-C chemokine receptor type 5 (CCR5, Homo sapiens, UniProt P51681)
Chain of UniProt P51681 (whole entry, looked up): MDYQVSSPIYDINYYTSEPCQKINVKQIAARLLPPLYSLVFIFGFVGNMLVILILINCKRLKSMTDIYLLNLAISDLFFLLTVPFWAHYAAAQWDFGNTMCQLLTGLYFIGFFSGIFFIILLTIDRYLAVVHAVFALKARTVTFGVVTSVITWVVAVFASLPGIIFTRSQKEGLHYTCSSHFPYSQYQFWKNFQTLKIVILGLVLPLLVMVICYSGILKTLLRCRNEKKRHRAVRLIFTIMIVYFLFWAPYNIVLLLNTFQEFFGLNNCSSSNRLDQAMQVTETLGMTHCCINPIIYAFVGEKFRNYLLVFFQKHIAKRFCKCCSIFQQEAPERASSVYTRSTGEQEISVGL
Rhomboid protease AarA: Rhomboid protease AarA (Providencia stuartii, UniProt P46116)
Chain of UniProt P46116 (whole entry, looked up): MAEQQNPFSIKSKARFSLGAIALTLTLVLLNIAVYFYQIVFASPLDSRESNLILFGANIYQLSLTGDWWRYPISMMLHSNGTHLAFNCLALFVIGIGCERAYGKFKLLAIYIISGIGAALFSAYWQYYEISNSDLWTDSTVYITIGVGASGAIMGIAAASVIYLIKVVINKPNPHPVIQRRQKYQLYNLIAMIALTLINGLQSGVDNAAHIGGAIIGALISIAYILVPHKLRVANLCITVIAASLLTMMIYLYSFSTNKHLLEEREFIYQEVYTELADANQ
T1: ssRNA, hairpin with 1x1 G/G internal loops (Homo sapiens); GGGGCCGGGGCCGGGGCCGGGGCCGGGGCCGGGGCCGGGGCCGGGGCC
Chain of UniProt P46089 (whole entry, looked up): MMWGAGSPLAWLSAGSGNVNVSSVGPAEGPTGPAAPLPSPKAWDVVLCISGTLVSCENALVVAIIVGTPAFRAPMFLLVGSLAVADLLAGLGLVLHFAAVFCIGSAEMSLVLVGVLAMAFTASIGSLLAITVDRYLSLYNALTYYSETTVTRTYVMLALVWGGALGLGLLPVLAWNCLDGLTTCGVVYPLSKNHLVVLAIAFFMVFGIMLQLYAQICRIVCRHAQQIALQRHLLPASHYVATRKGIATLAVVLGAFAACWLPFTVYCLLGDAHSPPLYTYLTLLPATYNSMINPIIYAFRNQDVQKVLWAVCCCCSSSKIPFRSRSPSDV
Chain of UniProt Q92633 (whole entry, looked up): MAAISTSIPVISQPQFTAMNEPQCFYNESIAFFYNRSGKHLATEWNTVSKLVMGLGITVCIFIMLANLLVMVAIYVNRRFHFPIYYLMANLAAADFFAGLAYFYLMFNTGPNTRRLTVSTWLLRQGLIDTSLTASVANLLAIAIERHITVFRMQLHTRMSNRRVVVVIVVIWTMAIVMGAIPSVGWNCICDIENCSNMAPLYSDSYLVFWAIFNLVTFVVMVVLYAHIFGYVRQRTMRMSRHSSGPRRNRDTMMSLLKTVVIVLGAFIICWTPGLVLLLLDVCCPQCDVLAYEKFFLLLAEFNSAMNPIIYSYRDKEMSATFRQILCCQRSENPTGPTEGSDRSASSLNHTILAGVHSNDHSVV
Chain of UniProt Q96FW1 (whole entry, looked up): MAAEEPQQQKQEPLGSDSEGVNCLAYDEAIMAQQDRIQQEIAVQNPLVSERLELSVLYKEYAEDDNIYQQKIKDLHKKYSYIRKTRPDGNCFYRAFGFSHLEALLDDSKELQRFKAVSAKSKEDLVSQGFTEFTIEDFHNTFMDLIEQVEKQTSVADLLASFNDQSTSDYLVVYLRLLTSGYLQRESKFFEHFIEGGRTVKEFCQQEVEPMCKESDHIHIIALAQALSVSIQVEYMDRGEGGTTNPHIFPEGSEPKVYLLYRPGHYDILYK
Chain of UniProt O75762 (whole entry, unmodified, looked up): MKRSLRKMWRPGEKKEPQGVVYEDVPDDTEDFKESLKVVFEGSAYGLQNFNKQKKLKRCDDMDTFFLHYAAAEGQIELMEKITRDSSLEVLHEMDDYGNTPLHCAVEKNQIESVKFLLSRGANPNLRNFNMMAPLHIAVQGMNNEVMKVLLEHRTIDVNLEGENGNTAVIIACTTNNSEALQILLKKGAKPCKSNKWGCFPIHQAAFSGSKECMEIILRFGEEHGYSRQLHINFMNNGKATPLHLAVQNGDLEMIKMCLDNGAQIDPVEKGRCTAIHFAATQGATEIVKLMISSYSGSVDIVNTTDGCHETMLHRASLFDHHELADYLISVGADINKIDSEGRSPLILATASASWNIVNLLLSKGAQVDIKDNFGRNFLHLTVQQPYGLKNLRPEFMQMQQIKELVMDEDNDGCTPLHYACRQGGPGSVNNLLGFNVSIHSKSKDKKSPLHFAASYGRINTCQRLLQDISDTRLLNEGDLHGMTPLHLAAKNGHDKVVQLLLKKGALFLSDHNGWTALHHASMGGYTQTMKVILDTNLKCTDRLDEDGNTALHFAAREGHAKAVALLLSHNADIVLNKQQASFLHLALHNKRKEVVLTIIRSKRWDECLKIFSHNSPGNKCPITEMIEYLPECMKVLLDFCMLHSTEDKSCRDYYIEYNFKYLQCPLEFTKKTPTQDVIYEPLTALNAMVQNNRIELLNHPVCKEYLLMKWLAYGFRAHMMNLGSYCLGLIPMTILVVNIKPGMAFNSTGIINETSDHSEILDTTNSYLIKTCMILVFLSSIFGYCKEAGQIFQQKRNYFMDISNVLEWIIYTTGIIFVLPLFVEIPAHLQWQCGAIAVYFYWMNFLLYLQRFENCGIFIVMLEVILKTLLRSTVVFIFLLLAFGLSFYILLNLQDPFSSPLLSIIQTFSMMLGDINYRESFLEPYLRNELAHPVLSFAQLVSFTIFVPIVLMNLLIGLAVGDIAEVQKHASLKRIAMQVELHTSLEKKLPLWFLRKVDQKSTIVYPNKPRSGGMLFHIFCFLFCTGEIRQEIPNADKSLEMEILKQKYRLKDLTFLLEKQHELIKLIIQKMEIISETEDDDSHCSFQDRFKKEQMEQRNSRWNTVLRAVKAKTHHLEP
Chain of UniProt P14867 (whole entry, unmodified, looked up): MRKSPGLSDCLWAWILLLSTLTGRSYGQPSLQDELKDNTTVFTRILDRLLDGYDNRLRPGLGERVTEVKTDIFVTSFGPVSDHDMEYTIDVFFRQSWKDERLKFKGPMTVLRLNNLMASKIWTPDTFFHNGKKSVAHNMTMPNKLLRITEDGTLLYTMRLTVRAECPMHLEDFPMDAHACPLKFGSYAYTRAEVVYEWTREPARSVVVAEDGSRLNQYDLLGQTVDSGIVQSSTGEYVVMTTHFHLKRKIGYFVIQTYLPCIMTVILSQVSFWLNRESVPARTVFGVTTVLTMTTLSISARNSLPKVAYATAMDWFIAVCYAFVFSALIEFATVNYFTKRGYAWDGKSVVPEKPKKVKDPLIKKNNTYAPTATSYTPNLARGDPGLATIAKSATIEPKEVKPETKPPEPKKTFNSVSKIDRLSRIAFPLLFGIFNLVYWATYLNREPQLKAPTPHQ
Chain of UniProt Q9NQR1 (whole entry, unmodified, looked up): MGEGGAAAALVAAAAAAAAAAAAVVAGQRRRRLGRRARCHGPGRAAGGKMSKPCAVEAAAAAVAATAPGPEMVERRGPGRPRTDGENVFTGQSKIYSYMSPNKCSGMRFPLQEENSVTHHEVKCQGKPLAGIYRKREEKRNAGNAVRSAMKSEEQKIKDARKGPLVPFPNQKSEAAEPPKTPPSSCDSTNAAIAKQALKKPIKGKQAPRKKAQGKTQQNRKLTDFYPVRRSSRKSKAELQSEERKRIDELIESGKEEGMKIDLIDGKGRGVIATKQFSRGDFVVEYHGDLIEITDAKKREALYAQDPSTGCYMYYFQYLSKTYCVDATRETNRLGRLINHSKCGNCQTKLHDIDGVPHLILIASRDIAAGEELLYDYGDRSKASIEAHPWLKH
Chain of UniProt Q92847 (whole entry, looked up): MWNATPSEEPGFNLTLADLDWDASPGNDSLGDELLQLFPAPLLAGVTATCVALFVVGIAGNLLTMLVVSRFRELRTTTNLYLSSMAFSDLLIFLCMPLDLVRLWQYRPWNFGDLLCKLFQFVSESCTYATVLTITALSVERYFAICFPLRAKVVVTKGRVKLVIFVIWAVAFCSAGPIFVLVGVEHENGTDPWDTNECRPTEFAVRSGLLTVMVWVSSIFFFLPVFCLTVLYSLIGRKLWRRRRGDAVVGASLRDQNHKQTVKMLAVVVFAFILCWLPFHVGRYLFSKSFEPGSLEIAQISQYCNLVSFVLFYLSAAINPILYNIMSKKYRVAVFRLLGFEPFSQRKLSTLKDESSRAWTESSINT
Chain of UniProt Q03431 (whole entry, looked up): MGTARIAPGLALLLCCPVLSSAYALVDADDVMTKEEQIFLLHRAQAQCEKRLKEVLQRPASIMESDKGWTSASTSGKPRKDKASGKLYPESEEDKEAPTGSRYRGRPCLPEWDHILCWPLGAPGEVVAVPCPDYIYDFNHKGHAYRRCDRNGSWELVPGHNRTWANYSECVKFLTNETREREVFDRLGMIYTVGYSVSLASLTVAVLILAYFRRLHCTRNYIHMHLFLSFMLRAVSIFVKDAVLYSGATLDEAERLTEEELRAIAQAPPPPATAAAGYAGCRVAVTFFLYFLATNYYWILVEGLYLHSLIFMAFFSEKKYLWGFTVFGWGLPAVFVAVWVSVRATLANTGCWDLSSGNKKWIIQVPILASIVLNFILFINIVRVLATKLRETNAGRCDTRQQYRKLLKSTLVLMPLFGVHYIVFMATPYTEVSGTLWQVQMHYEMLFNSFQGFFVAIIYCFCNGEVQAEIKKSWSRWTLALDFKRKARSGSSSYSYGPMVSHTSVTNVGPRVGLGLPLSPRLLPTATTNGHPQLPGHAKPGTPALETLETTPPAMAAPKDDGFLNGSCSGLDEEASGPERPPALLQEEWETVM

| SMILES | target | assay | test system | conditions | scale | endpoint | result |
| --- | --- | --- | --- | --- | --- | --- | --- |
| CCN(CC)C(CO)c1cccc2c(C)c(C)oc12 (stereo not shown) | LPAR1 (Homo sapiens, UniProt Q92633) | G-protein dissociation, agonist, NanoBiT | HEK-293T | 1 µM, wild-type receptor | relative to: baseline luminescence | fold change | 0.628 and 0.573 and 0.648 and 0.625 and 0.601 and 0.501 |
| Cn1cc(-c2cc(N3CCCCS3(=O)=O)ccc2N[C@H]2CC[C@H](C)CC2)c2cc[nH]c2c1=O (stereo in doubt) | CREBBP (Homo sapiens, UniProt Q92793) | binding, competition with immobilised ligand | – | 1 µM | – | remaining binding | 17% |
| CCCCCCOc1ccc(C(=O)OCCN2CC=CCC2)cc1 | CHRM4 (Homo sapiens, UniProt P08173) | – | membranes | 1 µM, 15 h, no carbachol | relative to: control | basal binding | 1.28 ± 0.06 fold |
| [N-]=[N+]=N[C@]1(COP(=O)(O)OP(=O)(O)OP(=O)(O)O)O[C@@H](n2ccc(N)nc2=O)[C@@H](F)[C@@H]1O | Gag-Pol polyprotein, reverse transcriptase (gag-pol, Human immunodeficiency virus type 1 group M subtype B, UniProt P04585) | nucleotide incorporation, substrate | HIV-1 | with: DNA template | – | Km | 0.079 µM |
| CC(=O)NCCCC[C@H](NC(C)=O)C(=O)N[C@@H](CCCC(=O)O)C(=O)N[C@@H](C)C(=O)N[C@@H](CC(=O)O)C(=O)COC(=O)c1c(C)cccc1C | CASP1 | enzyme activity, inhibitor | – | – | – | kinact/KI | 265000 M⁻¹ s⁻¹ |
| O=C1C(Cl)=C(NCCN2CCOCC2)C(=O)c2ncccc21 | KMT5A (Homo sapiens, UniProt Q9NQR1, C311S) | enzyme activity, radiometric filter | – | 8 h, 1 µM enzyme C270S variant | – | Hill coefficient | 2.5 |
| O=c1[nH]cnc2c(CNC(CO)COP(=O)(O)O)c[nH]c12 (racemic) | Uncharacterized protein (Trypanosoma cruzi, UniProt Q4DRC3) | inhibitor, spectrophotometric IMP formation | – | – | relative to: human HGPRT Ki over Uncharacterized protein Ki | selectivity ratio | > 0.3 |
| N#CN1CC[C@H](C(=O)Nc2nc3c(s2)CN(C(=O)Cn2cc(COCCOCCOCCOCCNC(=O)CCCC[C@@H]4SC[C@@H]5NC(=O)N[C@@H]54)nn2)CC3)C1 | OTUB1 (Homo sapiens, UniProt Q96FW1) | probe binding, affinity probe, neutravidin pull-down LC-MS/MS | HEK293T, cell lysate | 5 µM, 1 h, single replicate, unit not given | higher = more pulled down | iBAQ abundance | 47900 and 674000 and 1.61e+06 |
| CC(C)Oc1cc(Cl)ccc1CNc1cc(-c2ccccc2)nc2ncnn12 | GPR3 (Homo sapiens, UniProt P46089) | cAMP reporter | human cells | 30 µM | higher is more cAMP | cAMP luminescence | 11400 a.u. and 1290 a.u. and 2900 a.u. and 5690 a.u. and 3340 a.u. and 2100 a.u. |
| COc1cc(-c2cn(C)c(=O)c3cnccc23)cc(OC)c1CN(C)C | SMARCA2 (Homo sapiens, UniProt P51531) | – | – | – | – | ΔTm | -1 °C |
| COc1ccc(C(=O)c2c(C(=O)NCCCN(C)C)oc3ccc(Cl)cc3c2=O)cc1OC | GHSR (Homo sapiens, UniProt Q92847) | endosomal trafficking, agonist, bystander BRET 2xFYVE-Venus | – | 120 min, unit not given | relative to: baseline | Emax (net BRET) | 0.036 ± 0.005 |
| O=C1c2sc(-c3ccc(N4CCC(F)C4)nc3F)nc2CCN1c1cccnc1 (stereo not shown) | TAR DNA-binding protein 43, aggregated (TARDBP, Homo sapiens, UniProt Q13148) | saturation autoradiography | human, FTLD-TDP type A brain sections | 7.63 nM | – | specific binding | 48.9 nM |
| CC(=O)C12NC(C)(C)CC1(C)C(=O)C1=C2c2c(c3c4n2C(C)(C)CC2=C4C4(CC(C)(C)NC(C)(C4)C2=O)CC3(C)C)C(=O)C(C)(C)N1 (single isomer, unassigned; (+)) | OPRD1 (Homo sapiens, UniProt P41143) | cAMP level, agonist, LANCE Ultra cAMP | CHO | 50 µM | – | activation | 3.99% |
| O=C(NC[C@@H](Cc1ccc(F)cc1)N1CCC(O)(C(F)(F)F)CC1)C1(c2ccc(Cl)cc2)CCCC1 | TRPA1 (Homo sapiens, UniProt O75762, M912L) | calcium influx, agonist | – | – | relative to: M912L mutant over wild type | EC50 fold change | 3.2 |
| O=C(CC1NC(=O)c2ccccc2NC1=O)Nc1ccc2[nH]c(=O)c(=O)[nH]c2c1 (stereo not shown) | HSP90AA1 N-terminal domain | SPR, two-state model | N-terminal domain | – | – | kon | 30.5 ± 16.5 M⁻¹ s⁻¹ |
| N=C(N)NCCS(=O)(=O)O | SLC6A6 (Homo sapiens, UniProt P31641, Y138A) | binding, microscale thermophoresis | – | 40 nM, fitted curve | higher = more binding | fraction bound | 0 |
| C[C@H](CCC(=O)O)[C@H]1CC[C@H]2[C@@H]3[C@H](OS(=O)(=O)O)C[C@@H]4C[C@H](O)CC[C@]4(C)[C@H]3C[C@H](O)[C@]12C | CCR5 | – | – | 100 µM | – | activity | 1% |
| CCCCCCCCCCCCC/C=C/C=O | ADP-ribose glycohydrolase MACROD1 (Homo sapiens, UniProt Q9BQ69) | competitive isoTOP-ABPP | proteome, soluble, MDA-MB-231 | 100 µM, 60 min, with: iodoacetamide probe | relative to: DMSO over compound-treated, higher = stronger cysteine blockade | isoTOP-ABPP competition ratio | 1.1 |
| COC(=O)C(C)C(=O)Nc1ccccc1OCC1CC1 (stereo not shown) | Rhomboid protease AarA | enzyme activity, inhibitor, fluorogenic peptide substrate | – | – | – | IC50 | inactive |

| SMILES | target | assay | test system | conditions | scale | endpoint | result |
| --- | --- | --- | --- | --- | --- | --- | --- |
| CC(=O)N[C@@H](CC(C)C)C(=O)N[C@@H](CCC(=O)O)C(=O)N[C@H](C(=O)N[C@@H](CC(=O)O)C(=O)COC(=O)c1c(C)cccc1C)[C@@H](C)O | CASP1 | enzyme activity, inhibitor | – | – | – | kinact/KI | 651000 M⁻¹ s⁻¹ |
| Cc1ccc(C[C@H](NC(=O)CN2CCCc3cc4cc(C(=O)NCCNC(=O)CCCC[C@@H]5SC[C@@H]6NC(=O)N[C@@H]65)c(=O)oc4cc32)C(=O)NC/C=C/S(=O)(=O)c2ccccc2)cc1 | Procathepsin L (CTSL, Homo sapiens, UniProt P07711) | inhibitor | – | with: Z-Phe-Arg-pNA | – | kinact/Ki | 13600 M⁻¹ s⁻¹ |
| O=C(N1CCCC1)n1cc(-c2ccc(-c3ccccc3)cc2)nn1 | Phospholipase DDHD1 (Ddhd1, Mus musculus, UniProt Q80YA3) | probe labelling, inhibitor, competitive ABPP-SILAC, measured: Ddhd1 | mouse T cells | concentration not given, 4 h, protein level | relative to: treated over DMSO cells, lower = stronger inhibition | SILAC activity ratio | 1.4 |
| Cc1nnc(C(C)C)n1C1CC2CCC(C1)N2CCC(NC(=O)COCCOCCOCCOCCNC(=O)Cc1ccc(-c2nncnn2)cc1)c1ccccc1 (stereo not shown) | CCR5 | calcium mobilisation, antagonist | HEK-293T expressing CCR5 | top constrained to 1, with: PSC-RANTES | – | bottom of curve | 0.128 fraction of maximum |
| CCCCCC(O)/C=C/C=O (stereo not shown) | ASS1 (Homo sapiens, UniProt P00966) | acylphosphate-ATP probe SILAC-ABPP | ZAK-transfected HEK293T | 100 µM, with: acylphosphate-ATP probe | relative to: DMSO over compound-treated | probe labelling ratio | 0.59 |
| CCCCCCCCCCCCCCCC(=O)NCCCC[C@H](NC(=O)[C@H](CCC(=O)O)NC(=O)[C@H](Cc1ccc(O)cc1)NC(=O)[C@H](CCC(=O)O)NC(=O)COCC(=O)NCCCOCCOCCOCCCNC(=O)[C@H](Cc1c[nH]c2ccccc12)NC(=O)[C@H](CCCCN)NC(=O)[C@H](C)NC(=O)[C@H](CCCCNC(=N)N)NC(=O)[C@H](CCC(N)=O)NC(=O)[C@H](Cc1c[nH]cn1)NC(=O)[C@H](CCSC)NC(=O)[C@H](CC(C)C)NC(=O)[C@H](CCC(N)=O)NC(=O)[C@@H](NC(=O)[C@H](CCC(=O)O)NC(=O)C(C)(C)NC(=O)[C@@H](NC(=O)C(C)(C)N)C(C)C)[C@@H](C)CC)C(=O)N[C@@H](CCC(=O)O)C(=O)N[C@@H](Cc1ccc(O)cc1)C(=O)N[C@@H](CCC(=O)O)C(N)=O | PTH1R (Homo sapiens, UniProt Q03431) | cAMP production, agonist, GloSensor | SGS-72 | – | – | Hill coefficient | 1.44 |
| CC(C)(O)c1ccn2c(-c3ccc(F)c(-c4ccc(F)cc4C#N)c3)cnc2c1F | GABRA1 (Homo sapiens, UniProt P14867, D219N) | total protein level, Western blot | HEK-293T stably expressing GABAA receptors | 5 µM, single dose, with: hispidulin 10 µM | – | time to first increase | ≤ 6 h |
| COc1ccc(Cl)cc1C(=O)NC(C(F)(F)F)C(F)(F)F | Rhomboid protease AarA | enzyme activity, inhibitor, fluorogenic peptide substrate | – | – | – | IC50 | inactive |
| COc1cc(Nc2nccc(-c3cnn4nc(OC)ccc34)n2)cc(C(F)(F)F)c1 | Mast/stem cell growth factor receptor Kit, autoinhibited (KIT, Homo sapiens, UniProt P10721) | binding, competition with immobilised ligand | – | 1 µM | – | remaining binding | 96% |
| CC(=O)N[C@@H](Cc1c[nH]c2ccccc12)C(=O)N[C@@H](CCCCN)C(=O)N[C@@H](CCC(=O)O)C(=O)N[C@@H](CC(=O)O)C(=O)COC(=O)c1c(C)cccc1C | CASP1 | enzyme activity, inhibitor | – | – | – | kinact/KI | 684000 M⁻¹ s⁻¹ |
| Cc1cccc(NC(=O)C(C(F)(F)F)C(F)(F)F)n1 | Rhomboid protease AarA | enzyme activity, inhibitor, fluorogenic peptide substrate | – | – | – | IC50 | inactive |
| CC(=O)N[C@@H](CO)C(=O)N[C@H](C(=O)N[C@@H](CCC(=O)O)C(=O)N[C@H](C(=O)N[C@@H](CC(=O)O)C(=O)COC(=O)c1c(C)cccc1C)C(C)C)C(C)(C)C | CASP1 | enzyme activity, inhibitor | – | – | – | kinact/KI | 26900 M⁻¹ s⁻¹ |
| CCCNC(=O)CN1CCCN(C(=O)CN2CCCN(Cc3cccc4cnccc34)CC2)CC1 | T1, ssRNA, hairpin with 1x1 G/G internal loops (Homo sapiens) | BLI | – | – | – | Kd | 38 µM |
| COc1ccc(Cl)cc1NC(=O)CS(C)(=O)=O | Rhomboid protease AarA | enzyme activity, inhibitor, fluorogenic peptide substrate | – | – | – | IC50 | inactive |
| CC(=O)N[C@@H](CC(C)C)C(=O)N[C@@H](CCC(=O)O)C(=O)N[C@@H](CCC1CCCCC1)C(=O)N[C@@H](CC(=O)O)C(=O)COC(=O)c1c(C)cccc1C | CASP1 | enzyme activity, inhibitor | – | – | – | kinact/KI | 307000 M⁻¹ s⁻¹ |
| CN(Cc1cc(C2CC2)on1)C(=O)c1cccc(-c2ccc3c(c2)CCO3)c1 | Acetyl-CoA synthetase (Cryptococcus neoformans, UniProt J9VFT1) | enzyme activity, inhibitor, coupled pyrophosphate | – | 1.56 µM | higher is more activity | reaction rate | 0.0023 a.u. |
| C#CCCCn1cnc(N)c2nc(Sc3ccc(C)cc3C)nc1-2 | HSP90AA1 N-terminal domain | ITC | – | – | – | ΔG | -4.59 ± 0.56 kcal/mol |
| C#CCOC(=O)[C@@]1(C)C=C(C(=O)OC(C)(C)C)C(=O)CC1 | MAPK1 (Homo sapiens, UniProt P28482) | enzyme activity, D-SENSOR | – | 44.44 µM, mean of replicates | – | normalized kinase activity | 0.956 |
